Measurements from different studies.
Every numbered part comes from another study and shows a few of its results, in no order.

Series 1
Target: Histone acetyltransferase KAT6A, both winged helices, GST fusion (KAT6A, Homo sapiens, UniProt Q92794, residues 1-181)
Method: protein binding microarray
Form: double-stranded DNA, one strand shown
Medium: in vitro
Concentration: not given
Setting: 8-mer, flanks averaged, mean of 2 arrays, mostly near background
Reference: not given
Reading: higher = stronger binding
Quantity: E-score
Residues (chain): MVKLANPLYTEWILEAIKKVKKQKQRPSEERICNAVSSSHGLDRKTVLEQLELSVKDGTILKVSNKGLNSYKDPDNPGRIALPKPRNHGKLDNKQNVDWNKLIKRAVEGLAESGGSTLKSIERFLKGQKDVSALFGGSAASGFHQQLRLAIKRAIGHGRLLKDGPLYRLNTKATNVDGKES
GGGGGAAA: -0.0638
AGCATTAC: -0.186
ACGGGTGG: 0.162
AAGGGTCT: -0.0739
CGGGGCCA: 0.0523
CGACAGAC: -0.023
CATTCGTC: -0.0306
ATCGTGCA: -0.0103
GCACTGAA: -0.112
GGGGGCAC: -0.163
CTGTCAAG: -0.157
GCGTCAAA: 0.101
CGAGGTGA: 0.0174
AAGCGCGT: 0.304
AGGCTTAC: -0.0274
AGCAACCC: -0.015
AAATGTAC: -0.168
ACGGACCT: 0.193

Series 2
Target: Sal-like protein 4, full length isoform B (SALL4, Homo sapiens, UniProt Q9UJQ4-2, residues 1-616)
Method: universal PBM
Form: double-stranded DNA, one strand shown
Medium: in vitro
Concentration: not given
Setting: 8-mer, flanks averaged, mean of replicates
Reading: higher = stronger binding
Quantity: E-score
CGTTGCAA: -0.09
AGTTTCAG: -0.148
CACGAATA: 0.251
GCCTGAAC: -0.183
ACGTGGCT: -0.12
AACTCCGG: -0.21
CACAAGCG: -0.103
AGTCACAC: 0.00872
GCACGAGA: -0.0805
ATAACAAC: 0.267
ACTCGGAC: -0.126
AGGGTTGC: -0.0767
ACCCGTGC: -0.236
ATCAGCTC: 0.0142
AATCTAGG: 0.117
AATTTTAT: 0.354
ATAACCGA: 0.213

Series 3
Target: RNA binding protein fox-1 homolog 2, RRM domain, GST-SBP tag (RBFOX2, Homo sapiens, UniProt O43251-10, residues 100-194)
Method: RNA Bind-n-Seq
Form: RNA
Medium: in vitro
Concentration: 365 nM
Setting: natural RNA segment, single round, ends assumed
Reference: no-protein control
Reading: higher = stronger binding
Quantity: RBNS enrichment (R)
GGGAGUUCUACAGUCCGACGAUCGGGCUUUUUUAGGUUUUGGGGCAUUUGUUUUUUGUAAAUAAGAUGAUUAUGCUUUGUGGCUAUCCAUCAACAUAAGUAAAAAAAAAAAAAAAACACUUCAACUCCCUCCCUGGAAUUCUCGGGUGCCAA: 0.455
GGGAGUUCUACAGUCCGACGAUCUUAUAUUGAUCUUACCAAAUCAACACCACACAUAUUUAUUCUAACUAUAAAAAGCAAUAAAUGCAAACAAAACAAAAAAGUUCAUGGUAAAAUGACGGAAUCAGCAUGUGUGGAAUUCUCGGGUGCCAA: 15.8
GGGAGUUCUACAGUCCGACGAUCAAAAAAAAAAGAAAAAAAAGAAAAACUGAUGGUGAAACCUACAGGUUUAAGGGCUUAAAUCUCAAACUUUGUUAGGAGUAACAGGAGCGUGCUGAGCGGGCAAGCAAUAAUGGAAUUCUCGGGUGCCAA: 0.682
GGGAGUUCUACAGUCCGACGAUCUUAAAGUGCUACUUGAAAGCACAGGCUAGACAGAAAGCACAAGGAACCUAGGGGGUUGAUACAAUGUUACUGUAAUUGUGUGGGUGGGUGUCAUCCUUUGUGACAUUGUUUGGAAUUCUCGGGUGCCAA: 0.826
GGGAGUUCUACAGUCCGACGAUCAACUGACAGGCCUUCCUUCACGUGGGGUCUCAGUGGUGGCCUACCAUGACAGCUUGGUCAGUGUGCCUAGGCAGGGCACAUUGCCUGGGCAUGUGUAGAGUGAGUGCCCCUGGAAUUCUCGGGUGCCAA: 0.411
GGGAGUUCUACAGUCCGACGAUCAUCUUUUUAGCACUAAGGAAUUUGAUUUCAGCCUUCCAGCUGUUGCUGUGAGUUGUUCCAGACCUUUCUGUGGCUUUUUGGUAAGGCUGCUUAGAAGCAUGAGAAGCAUGUGGAAUUCUCGGGUGCCAA: 3.18
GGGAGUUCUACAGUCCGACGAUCCAUUUAUACCGAGUGAGAUCAUUAACAAUGAAAUUGAGAGAUUAGAGCAUCCUCACUGGGUGAUGGUAACAGGGAAUGUAGAGGGCUGAUAUCUUCCCCUAAGAGAGGCAUGGAAUUCUCGGGUGCCAA: 5.42
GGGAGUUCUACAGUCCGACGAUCGUGGCAGUCACGUGGCUGACUCCUGUCUUGGGCCAUAGGCCUAGAUCCCUACCCAUGGGAAUGCAGAGCCUUCUCCGCAUGUGUGCGUGCAGCUGUGUCUUAUGUAUUUAUGGAAUUCUCGGGUGCCAA: 1.25
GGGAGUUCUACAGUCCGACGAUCCCAGUGCAAGCGCCAGGUGAUCUGUGUCUGAGGAUACGAUUUUGAACCUUAUGAGCAGUGUACAAAUAUCAUGAGACAACUGAUCAGCACUUGCACCUGAUCAAGAGCAGUGGAAUUCUCGGGUGCCAA: 0.387
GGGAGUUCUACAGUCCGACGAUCGGAGCAGAAACAUAAUCAAUCCCUCCCUGAGAUAAAAUGUGGGCAUGCACAUUGCUUUGGAGUCAGUAUUCAGCUGUAAGUGUAGUAUUGUUUUAUGGCUGAAAUAGAAAUGGAAUUCUCGGGUGCCAA: 18.7
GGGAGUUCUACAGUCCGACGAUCCAACCCUGCGGAUGUGGUGGAAAUCAGGACACUGUCCCGGCCAUCUGAGACCUGCAAUGAGACCACCAAGCUUGGGGACUUUGUUCGAUACCAUUACAACUGUUCUUUGCUGGAAUUCUCGGGUGCCAA: 0.568
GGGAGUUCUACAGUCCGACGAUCUGGUUAAAAGAAAAGAACAAUAAGAUGCAUUCAAAGAAUAAUUGCUUUCAGCCUGCUGCCUAAAUCGGCAAAGGAACACAGCGGGAAAGAGAGAUCUGGGUCUUGGUAAUUGGAAUUCUCGGGUGCCAA: 1.17

Series 4
Target: RING finger protein unkempt homolog, zinc fingers 1-6, GST-SBP tag (UNK, Homo sapiens, UniProt Q9C0B0, residues 30-357)
UniProt Q9C0B0, sequence (30-357, looked up): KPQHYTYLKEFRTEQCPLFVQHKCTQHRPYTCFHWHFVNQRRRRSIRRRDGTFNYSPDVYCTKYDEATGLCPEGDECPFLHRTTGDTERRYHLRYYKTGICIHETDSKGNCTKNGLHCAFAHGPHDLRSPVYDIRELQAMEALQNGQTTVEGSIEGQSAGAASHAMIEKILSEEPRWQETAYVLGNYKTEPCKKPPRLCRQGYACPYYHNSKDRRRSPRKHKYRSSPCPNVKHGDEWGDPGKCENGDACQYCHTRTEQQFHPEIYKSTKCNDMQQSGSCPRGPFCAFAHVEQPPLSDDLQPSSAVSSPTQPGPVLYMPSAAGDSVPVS
Method: RNA Bind-n-Seq
Form: RNA
Medium: in vitro
Concentration: not given
Setting: RNA with constant flanks, human and mouse sites, ends assumed
Reference: input RNA pool
Reading: higher = stronger binding
Quantity: bound/input enrichment
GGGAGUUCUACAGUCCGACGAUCCCUCCUUUUGCAACUGGACUGCCUCACUAUGGACAUAUACUUGCGGGUACAAUUAAAGAUAUAGUUACAAGAUAUGCUCACCAGAGUGGGUUUCAUGUUGACAGAAGAUUUGGAUGGGAUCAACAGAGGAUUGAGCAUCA: 1.16 ratio
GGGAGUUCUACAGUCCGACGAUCAGCUUUUGAUUCUCAUGCACCUCUUACAGUUGUUUCUUCUUCUGGACAGAUAAGGGUACAUUUUUGUGCUGAUAAAGUGAAUGCUGCAAGGGGAUUUAAUGCUACUUACCAAGUAGAUGGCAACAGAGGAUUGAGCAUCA: 0.198 ratio
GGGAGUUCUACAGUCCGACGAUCUUCCUCGCAAGCCUGGCUGCUGCAGGGAGUGGCACAGAUGCCCAGGUGGCCCUAGUGAAUGAAGUAAAAGCAGCCCUUGGACGGGCACUGGCUAUGGCUGAGAGUACAGAGAAACAUGCCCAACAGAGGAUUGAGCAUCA: 0.714 ratio
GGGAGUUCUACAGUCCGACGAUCGAUGGUGCACAUGCCCCAGAGUUGACCAAAAAAGUUCAGCGACAUGCAUCUAGUGGCUCCUUCCUACCCAGCGCUAAUGAACAUCUUAAAGAAGAUCUCAACCUUCGCUUGAAGAAAUUGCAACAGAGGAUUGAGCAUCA: 0.128 ratio
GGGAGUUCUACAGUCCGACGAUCUGAAGUGGUUUUUGUGGGUGUGAAACAAAUGGUGAGAAUUUGAAUUGGUCCCUCUUAUUAUAGUAUUGAAAUUAAGUCUACUUAAUUUAUCAAGUCAUGUUCAUGCCCUGAUUUUAUAUACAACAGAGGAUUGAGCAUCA: 3.47 ratio
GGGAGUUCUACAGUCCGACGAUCGGGGGCCAGGGGGCGGUGGCGGGAGGAUUGAGUGCCUAGACGGUCGCCCAGGAGCAGGUGUAGCUACUUCACAUCGACUGACUCCAAGAUGGCAAUCCAGUUGCGUUCGCUCUUCCCCUUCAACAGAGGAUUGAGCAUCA: 0.408 ratio
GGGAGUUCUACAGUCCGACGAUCAUCAUUGGCUAUGCCAGGAACCCGUCUCUCAAGCAGCAGCUCUUCUCCUAUGCCAUUCUUGGCUUUGCCCUGUCUGAGGCCAUGGGGCUUUUCUGUUUGAUGGUCGCCUUCCUCAUCCUCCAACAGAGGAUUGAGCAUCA: 0.131 ratio
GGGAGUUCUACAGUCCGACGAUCGGGUAUGGCAAUCCCCGAAACUCACCAGGUCUGCUGGUCUCACCUGGUAACUUGAACAAGAAUAUGCAAGCAAAAUCUCCUCCCCCAAUGAAUUUAGGAAUGAAUAACCGUAAACCAGAUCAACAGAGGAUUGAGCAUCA: 2.27 ratio
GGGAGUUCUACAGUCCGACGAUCAAUAAAGAUGCUCCUCUUCCUGAUGGUCAGAGCCUGCAGGGAACACUGGUCAGCAAAAUCACCUUCCAGCACCCUGGCCGAGUUCCUCUUAUCUUGAAUAUGAUCAGACACCAAGUGGCCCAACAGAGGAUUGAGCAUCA: 0.287 ratio
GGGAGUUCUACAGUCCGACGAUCAAUGAAGGAACACUGGAUGAUUUUACAGUUAUAAACAGACGCAAAAAGGUAGCCAGCAAUGUAGCAUCAGCAGUGAAAAGGCCAUUUCAUUUCAUGGCAAAUUUUCCUUGUCCACCAUCACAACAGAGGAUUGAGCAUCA: 0.297 ratio
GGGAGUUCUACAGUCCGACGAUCAUGGAAGAUACGUUGAAGAGGAGGUUUUUCUACGAUCAGGCUUUUGCUAUUUAUGGAGGUGUCAGUGGAUUGUAUGACUUCGGGCCGGUAGGAUGUGCUUUGAAGAACAAUAUCAUCCAGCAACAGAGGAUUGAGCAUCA: 0.367 ratio

For quick reference, copied from above (series 1):
GGGGGCAC: -0.163
CTGTCAAG: -0.157
GCGTCAAA: 0.101
CGAGGTGA: 0.0174
AAGCGCGT: 0.304
AGGCTTAC: -0.0274
AGCAACCC: -0.015
AAATGTAC: -0.168
